Measured values from different studies.
Parts stem from different laboratories: compare values within a part only. pIC50: −log10 of the molar value.

Study 1 — technique: Spec-seq; form: double-stranded DNA, one strand shown; matrix: in vitro; tested at: not given; setting: whole probe, mean of replicates; baseline: not given; reading: lower = stronger binding; endpoint: relative binding energy; all sequences stand within: GAGTCGTCTCGTCAGCAC … CCGTAGAGCACTCAGGTC
Target: POU, POU domain (Salpingoeca helianthica)
Residues (chain): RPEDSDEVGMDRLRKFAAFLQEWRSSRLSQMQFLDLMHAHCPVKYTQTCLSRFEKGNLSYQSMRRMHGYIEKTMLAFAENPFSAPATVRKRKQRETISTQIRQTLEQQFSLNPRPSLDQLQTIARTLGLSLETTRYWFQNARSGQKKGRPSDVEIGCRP
ATGCCAGA: 1.19 ln ratio
ACACTAAT: 0.419 ln ratio
ATGCGGTA: 1.46 ln ratio
ATGCGTCC: 1.04 ln ratio
CAGTTAAT: -0.559 ln ratio

Study 2 — read-out: enzyme activity; mode: inhibitor; tested at: 20 µM; endpoint: inhibition
Target: Replicase polyprotein 1ab, polymerase (rep, Severe acute respiratory syndrome coronavirus 2, UniProt P0DTD1)
COCCN1CCN(Cc2ccc(-c3n[nH]c4c3C(=O)c3c(NC(=O)NN5CCOCC5)cccc3-4)cc2)CC1: 10.1%
COc1cc(/C=C/C(=O)N2CCCCCCC2)cc(OC)c1OC: 1.78%
CC1=NN(c2ccccc2)C(=O)C1: -1.18%
COC(=O)[C@@H](N)CCCNC(=N)N[N+](=O)[O-]: 1.6%
CO/N=C(\C(=O)N[C@@H]1C(=O)N2C(C(=O)[O-])=C(C[n+]3ccn4ncccc43)CS[C@H]12)c1nsc(N)n1: 0.46%
Oc1cc2c(cc1O)CN(C(=S)NCCc1ccc(Cl)cc1)CCC2: 0.95%
Nc1ncnc2c1ncn2CCOCP(=O)(O)O: -1.05%
CC[n+]1c(-c2ccccc2)c2cc(N)ccc2c2ccc(N)cc21: 97.7%
CCCn1cnc2c1c(=O)n(CCCCC(C)=O)c(=O)n2C: -0.18%
CC(C)=CCC[C@](C)(O)[C@@H]1CC=C(C)CC1: -0.69%
CCOC(=O)CCC(=O)O[C@H]1[C@H](O[C@@H]2[C@@H](C)[C@H](O[C@H]3C[C@@](C)(OC)[C@@H](O)[C@H](C)O3)[C@@H](C)C(=O)O[C@H](CC)[C@@](C)(O)[C@H](O)[C@@H](C)C(=O)[C@H](C)C[C@@]2(C)O)O[C@H](C)C[C@@H]1N(C)C: 7.78%
CC[C@H]1[C@@H](O)[C@@H]2[C@H](CC[C@]3(C)[C@@H]([C@H](C)CCOS(=O)(=O)O)CC[C@@H]23)[C@@]2(C)CC[C@@H](O)C[C@@H]12: 0.75%
CN(C)CCCCC(=O)Nc1ccc(NC(=S)NC(=O)c2ccc(C(C)(C)C)cc2)cc1: -2.51%
CCCCCCCCC(=O)NCc1cc(OC)c(O)cc1I: -2.91%
O=C1COc2nccc(-c3ccccc3F)c2CN1Cc1cc(C(F)(F)F)cc(C(F)(F)F)c1: -23.3%
CC(C)=CCC/C(C)=C/CC/C(C)=C/CCC(=O)OC/C=C(\C)CCC=C(C)C: 9.87%
CCN(Cc1ccccc1)C(=O)Cn1c(=O)n(C)c2cnc(-c3ccccc3)nc21: 1.19%
O=c1cc(N2CCOCC2)oc2c1ccc1ccccc12: -2.85%
O=C1NCN(c2ccccc2)C12CCN(CCCC(c1ccc(F)cc1)c1ccc(F)cc1)CC2: 0.32%
O=C1C(Cl)=C(NCCN2CCOCC2)C(=O)c2ncccc21: 36.2%
c1ccc(C(NCc2cccnc2)(c2ccccc2)c2ccccc2)cc1: -3.34%
CC(=O)[C@H]1CC[C@H]2[C@@H]3CCC4=CC(=O)CC[C@]4(C)[C@H]3CC[C@]12C: 8.45%

Study 3 — cell line: HEK-293T/ACE2; tested at: concentration not given; time: 16 (unit not given); baseline: vehicle; endpoint: viability
CC(C)(C)NC[C@H](O)COc1nsnc1N1CCOCC1: 103%
O=C(O[C@H]1CN2CCC1CC2)N1CCc2ccccc2[C@@H]1c1ccccc1: 102%
CC(=O)OCC[N+](C)(C)C: 97.6%
CC#CCn1c(N2CCC[C@@H](N)C2)nc2c1c(=O)n(Cc1nc(C)c3ccccc3n1)c(=O)n2C: 108%

Study 4 — technique: phase 2a clinical trial; measured: injury and poisoning (SOC); species: idiopathic pulmonary fibrosis patients; endpoint: patients with TEAEs
Structure (SMILES): CC(C)n1cnc(-c2ccc(F)cc2)c1-c1ncc(C(=O)Nc2ccc(N3CCN(C)CC3)cc2)[nH]1
60 mg once daily, grade 2 maximum intensity: 0%
60 mg once daily, grade 5 maximum intensity: 0%
30 mg once daily, grade 3 maximum intensity: 0%
30 mg once daily, grade 4 maximum intensity: 0%

Study 5 — technique: DNA-protein interaction ELISA; form: double-stranded DNA, one strand shown; matrix: in vitro, bacterial lysate; tested at: not given; setting: whole dsDNA probe, crude lysate protein; baseline: highest signal in screen; reading: higher = stronger binding; endpoint: relative absorbance
Target: Probable WRKY transcription factor 11, DNA-binding domain (WRKY11, Arabidopsis thaliana, UniProt Q9SV15, residues 228-325)
Target sequence (chain): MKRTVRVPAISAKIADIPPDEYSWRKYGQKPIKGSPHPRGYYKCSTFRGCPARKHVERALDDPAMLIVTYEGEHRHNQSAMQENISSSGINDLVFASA
AAAAAACACTCACACCTATACGGCTCAAAA: 14.4 % of maximum
AAAAAAATCCGATCGATGCATATATAAAA: 18.7 % of maximum
AAAAAATGCTATCCGTGTCTATGCCAAAAA: 14.1 % of maximum

Study 6 — technique: protein binding microarray; form: double-stranded DNA, one strand shown; matrix: in vitro; tested at: not given; baseline: not given; reading: higher = stronger binding; endpoint: E-score
Target: Histone acetyltransferase KAT6A, winged helix 1, GST fusion (KAT6A, Homo sapiens, UniProt Q92794, residues 1-85)
Setting: 8-mer, flanks averaged, mean of 2 arrays, mostly near background
Construct (chain): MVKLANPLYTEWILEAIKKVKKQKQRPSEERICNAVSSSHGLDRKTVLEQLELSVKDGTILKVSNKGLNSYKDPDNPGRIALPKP
TCCTGTCA: -0.0905
AGCTAGAC: -0.0758
GGCTTCAC: 0.0646
CTGAGTTA: -0.12
AATTATAC: -0.0325
CGTGTTAC: 0.113
CGAGAGAA: -0.123
ATCCGGAT: -0.161

Further values, each from its own experiment
rep main protease: Replicase polyprotein 1ab, main protease (rep, Severe acute respiratory syndrome coronavirus 2, UniProt P0DTD1)
COC(=O)C1=C(C)NC(C)=C(C(=O)OCC(C)C)C1c1ccccc1[N+](=O)[O-] (stereo not shown)  inhibition (rep main protease; enzyme activity, inhibitor; 20 µM, primary screen): 39.7%
speG (Vibrio cholerae, UniProt Q9KL03)  K0.5 (CC(=O)SCCNC(=O)CCNC(=O)[C@H](O)C(C)(C)COP(=O)(O)OP(=O)(O)OC[C@H]1O[C@@H](n2cnc3c(N)ncnc32)[C@H](O)[C@@H]1OP(=O)(O)O; steady-state kinetics; pH 9, 37 °C): 1210 µM
Cc1ccc(C)c(-n2sc3cc(F)ccc3c2=O)c1  pIC50 (rep main protease; enzyme activity, inhibitor; SARS-CoV-2; together with: DTT): 8.00

A few entries again (study 5):
AAAAAACACTCACACCTATACGGCTCAAAA: 14.4 % of maximum
AAAAAATGCTATCCGTGTCTATGCCAAAAA: 14.1 % of maximum
AAAAAAATCCGATCGATGCATATATAAAA: 18.7 % of maximum
